Assay results gathered from unrelated publications.
Compare with care: the assays were run in different laboratories. Numbers after ± are the reported error.
EZH2: Histone-lysine N-methyltransferase EZH2 (EZH2, Homo sapiens, UniProt Q15910)
Sequence of UniProt Q15910 (whole entry, looked up): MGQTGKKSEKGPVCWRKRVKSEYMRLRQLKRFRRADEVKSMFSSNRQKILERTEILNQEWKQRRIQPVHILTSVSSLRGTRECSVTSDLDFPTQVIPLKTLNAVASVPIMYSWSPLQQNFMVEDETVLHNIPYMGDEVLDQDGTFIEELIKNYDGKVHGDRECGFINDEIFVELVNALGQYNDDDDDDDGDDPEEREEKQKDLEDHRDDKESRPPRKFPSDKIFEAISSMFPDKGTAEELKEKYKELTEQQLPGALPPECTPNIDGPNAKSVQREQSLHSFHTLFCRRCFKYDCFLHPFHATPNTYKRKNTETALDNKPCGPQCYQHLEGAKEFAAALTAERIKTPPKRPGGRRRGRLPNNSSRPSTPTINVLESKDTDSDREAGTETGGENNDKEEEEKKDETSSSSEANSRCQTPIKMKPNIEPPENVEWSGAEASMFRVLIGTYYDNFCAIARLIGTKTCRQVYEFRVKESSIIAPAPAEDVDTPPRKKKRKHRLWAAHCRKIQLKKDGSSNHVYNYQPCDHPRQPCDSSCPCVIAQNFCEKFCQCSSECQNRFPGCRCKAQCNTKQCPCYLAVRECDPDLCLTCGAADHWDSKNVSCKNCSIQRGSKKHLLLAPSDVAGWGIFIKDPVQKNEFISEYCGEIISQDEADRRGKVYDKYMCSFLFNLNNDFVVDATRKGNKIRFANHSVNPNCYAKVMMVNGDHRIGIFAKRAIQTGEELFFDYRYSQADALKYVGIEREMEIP
Sequence of UniProt P10721 (whole entry, unmodified, looked up): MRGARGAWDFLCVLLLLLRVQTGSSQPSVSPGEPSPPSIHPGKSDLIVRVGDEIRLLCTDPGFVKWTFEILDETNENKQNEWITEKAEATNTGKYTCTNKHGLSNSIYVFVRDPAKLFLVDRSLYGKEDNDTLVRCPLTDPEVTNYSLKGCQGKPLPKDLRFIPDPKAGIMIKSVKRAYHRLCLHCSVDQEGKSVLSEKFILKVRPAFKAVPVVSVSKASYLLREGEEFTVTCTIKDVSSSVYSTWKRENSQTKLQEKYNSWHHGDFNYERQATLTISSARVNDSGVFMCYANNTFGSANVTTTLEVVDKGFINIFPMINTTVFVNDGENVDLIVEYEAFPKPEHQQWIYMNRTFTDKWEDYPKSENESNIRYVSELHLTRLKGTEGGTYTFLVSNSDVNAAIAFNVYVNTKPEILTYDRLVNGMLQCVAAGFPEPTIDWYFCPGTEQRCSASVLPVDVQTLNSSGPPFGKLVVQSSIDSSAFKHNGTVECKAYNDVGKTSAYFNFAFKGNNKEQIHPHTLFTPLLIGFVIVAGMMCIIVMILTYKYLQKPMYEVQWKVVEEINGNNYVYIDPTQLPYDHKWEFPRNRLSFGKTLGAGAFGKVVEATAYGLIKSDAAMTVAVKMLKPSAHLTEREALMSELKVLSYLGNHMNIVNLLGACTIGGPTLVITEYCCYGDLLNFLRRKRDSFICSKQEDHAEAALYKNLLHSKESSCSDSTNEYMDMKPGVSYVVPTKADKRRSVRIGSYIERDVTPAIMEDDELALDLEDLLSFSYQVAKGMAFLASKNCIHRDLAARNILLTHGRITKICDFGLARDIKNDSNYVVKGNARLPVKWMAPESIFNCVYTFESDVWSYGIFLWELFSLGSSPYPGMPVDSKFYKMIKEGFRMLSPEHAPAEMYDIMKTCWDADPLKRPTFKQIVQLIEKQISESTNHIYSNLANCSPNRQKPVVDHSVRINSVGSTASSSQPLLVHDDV
Sequence of UniProt P21554 (whole entry, unmodified, looked up): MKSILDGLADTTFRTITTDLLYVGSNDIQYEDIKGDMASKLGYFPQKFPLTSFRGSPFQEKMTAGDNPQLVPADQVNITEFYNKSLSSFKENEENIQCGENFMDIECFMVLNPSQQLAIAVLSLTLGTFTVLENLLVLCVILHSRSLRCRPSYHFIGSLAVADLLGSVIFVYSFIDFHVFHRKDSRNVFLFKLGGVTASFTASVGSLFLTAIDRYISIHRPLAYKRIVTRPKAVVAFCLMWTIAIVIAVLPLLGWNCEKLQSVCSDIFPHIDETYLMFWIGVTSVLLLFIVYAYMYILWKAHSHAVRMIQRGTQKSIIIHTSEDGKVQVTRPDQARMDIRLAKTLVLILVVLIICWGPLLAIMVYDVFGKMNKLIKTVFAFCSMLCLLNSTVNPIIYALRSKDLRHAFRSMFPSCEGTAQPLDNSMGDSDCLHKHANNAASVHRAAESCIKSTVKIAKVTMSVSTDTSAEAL
Sequence of UniProt P0A988 (whole entry, looked up): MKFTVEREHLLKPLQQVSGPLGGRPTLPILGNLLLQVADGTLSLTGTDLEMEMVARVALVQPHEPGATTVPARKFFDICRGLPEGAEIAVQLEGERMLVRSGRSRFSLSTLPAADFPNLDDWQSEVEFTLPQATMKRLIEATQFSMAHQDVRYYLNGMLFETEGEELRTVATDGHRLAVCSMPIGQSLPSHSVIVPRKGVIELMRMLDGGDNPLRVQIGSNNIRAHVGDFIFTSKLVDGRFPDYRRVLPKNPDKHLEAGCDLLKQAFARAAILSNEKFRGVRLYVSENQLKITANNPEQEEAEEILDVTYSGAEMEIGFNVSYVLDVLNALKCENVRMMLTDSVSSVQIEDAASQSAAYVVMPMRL
Sequence of UniProt Q15059 (whole entry, unmodified, looked up): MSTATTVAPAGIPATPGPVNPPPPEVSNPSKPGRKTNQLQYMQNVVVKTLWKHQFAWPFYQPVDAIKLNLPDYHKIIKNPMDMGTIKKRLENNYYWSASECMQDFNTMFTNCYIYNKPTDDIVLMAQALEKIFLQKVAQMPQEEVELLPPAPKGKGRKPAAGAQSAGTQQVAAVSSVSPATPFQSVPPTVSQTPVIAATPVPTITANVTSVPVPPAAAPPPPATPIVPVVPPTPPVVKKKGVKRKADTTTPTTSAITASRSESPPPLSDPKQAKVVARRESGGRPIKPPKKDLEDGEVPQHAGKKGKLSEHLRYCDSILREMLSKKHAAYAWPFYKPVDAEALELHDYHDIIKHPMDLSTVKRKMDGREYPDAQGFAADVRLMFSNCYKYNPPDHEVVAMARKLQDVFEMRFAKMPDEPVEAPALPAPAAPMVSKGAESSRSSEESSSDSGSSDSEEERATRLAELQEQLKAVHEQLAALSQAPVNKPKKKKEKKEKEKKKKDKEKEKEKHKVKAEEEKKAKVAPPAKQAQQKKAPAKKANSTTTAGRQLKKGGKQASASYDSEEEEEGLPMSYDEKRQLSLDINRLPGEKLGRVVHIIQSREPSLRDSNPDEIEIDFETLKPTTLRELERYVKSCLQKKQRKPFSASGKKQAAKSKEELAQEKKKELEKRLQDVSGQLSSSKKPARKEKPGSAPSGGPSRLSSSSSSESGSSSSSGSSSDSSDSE
Sequence of UniProt P10275 (whole entry, looked up): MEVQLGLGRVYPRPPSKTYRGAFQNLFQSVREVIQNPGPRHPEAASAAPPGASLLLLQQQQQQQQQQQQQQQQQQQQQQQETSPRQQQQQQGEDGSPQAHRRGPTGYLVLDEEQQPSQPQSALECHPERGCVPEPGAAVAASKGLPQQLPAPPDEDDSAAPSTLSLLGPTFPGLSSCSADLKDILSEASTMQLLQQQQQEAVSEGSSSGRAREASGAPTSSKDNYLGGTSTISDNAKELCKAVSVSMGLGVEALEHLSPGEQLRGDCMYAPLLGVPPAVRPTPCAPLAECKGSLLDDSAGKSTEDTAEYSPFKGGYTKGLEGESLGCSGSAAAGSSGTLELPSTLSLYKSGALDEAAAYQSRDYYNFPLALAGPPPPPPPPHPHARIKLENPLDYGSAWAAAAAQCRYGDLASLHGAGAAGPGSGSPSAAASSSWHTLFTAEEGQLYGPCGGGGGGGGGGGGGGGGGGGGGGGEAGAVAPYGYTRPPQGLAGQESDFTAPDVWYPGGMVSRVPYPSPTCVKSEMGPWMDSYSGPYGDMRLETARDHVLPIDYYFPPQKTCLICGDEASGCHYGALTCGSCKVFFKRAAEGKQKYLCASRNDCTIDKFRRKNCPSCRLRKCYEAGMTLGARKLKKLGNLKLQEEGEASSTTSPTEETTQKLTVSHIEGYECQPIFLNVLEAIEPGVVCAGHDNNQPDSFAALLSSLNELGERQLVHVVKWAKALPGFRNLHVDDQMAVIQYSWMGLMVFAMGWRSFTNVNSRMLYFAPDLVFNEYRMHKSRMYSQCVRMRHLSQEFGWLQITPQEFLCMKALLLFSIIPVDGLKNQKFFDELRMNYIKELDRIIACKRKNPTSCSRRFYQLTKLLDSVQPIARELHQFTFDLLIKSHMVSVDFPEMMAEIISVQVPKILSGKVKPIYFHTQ
Sequence of UniProt Q01959 (whole entry, looked up): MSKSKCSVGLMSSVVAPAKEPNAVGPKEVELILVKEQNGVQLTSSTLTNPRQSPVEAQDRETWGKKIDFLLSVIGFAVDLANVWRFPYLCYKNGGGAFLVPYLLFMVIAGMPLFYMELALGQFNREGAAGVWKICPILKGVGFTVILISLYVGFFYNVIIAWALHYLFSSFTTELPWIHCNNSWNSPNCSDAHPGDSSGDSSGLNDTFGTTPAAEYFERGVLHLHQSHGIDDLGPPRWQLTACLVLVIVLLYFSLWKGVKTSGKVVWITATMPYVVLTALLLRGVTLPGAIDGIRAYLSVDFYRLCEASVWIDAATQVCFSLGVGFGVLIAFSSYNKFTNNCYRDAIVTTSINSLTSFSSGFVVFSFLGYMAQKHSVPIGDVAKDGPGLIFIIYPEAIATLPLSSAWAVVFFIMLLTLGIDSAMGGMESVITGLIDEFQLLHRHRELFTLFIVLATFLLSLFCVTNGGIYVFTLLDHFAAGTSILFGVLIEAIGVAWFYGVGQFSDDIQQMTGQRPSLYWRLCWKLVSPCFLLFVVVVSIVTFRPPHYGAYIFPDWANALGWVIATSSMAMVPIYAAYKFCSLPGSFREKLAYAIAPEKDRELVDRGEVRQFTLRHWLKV

Compound	tested on	test	test system	setting	how to read	endpoint	value
CS(C)(=O)=Nc1ccc(-c2ccc(-c3nc4cc(O[C@@H]5CO[C@H]6[C@@H]5OC[C@H]6O)[nH]c4cc3F)cc2)cc1	Mast/stem cell growth factor receptor Kit (KIT, Homo sapiens, UniProt P10721, V560G)	enzyme activity, inhibitor	–	10 µM	–	inhibition	37%
CC[C@H](C)[C@H](NC(=O)[C@H](CO)NC(=O)[C@H](CC(N)=O)NC(=O)[C@H](CC(C)C)NC(=O)[C@H](Cc1ccc(O)cc1)NC(=O)[C@H](CCCCN)NC(=O)[C@H](CCCCN)NC(=O)[C@@H](NC(=O)[C@H](C)NC(=O)[C@H](CCSC)NC(=O)[C@H](CCC(N)=O)NC(=O)[C@H](CCCCN)NC(=O)[C@H](CCCNC(=N)N)NC(=O)[C@H](CC(C)C)NC(=O)[C@H](CCCNC(=N)N)NC(=O)[C@@H](NC(=O)[C@H](Cc1ccc(O)cc1)NC(=O)[C@H](CC(N)=O)NC(=O)[C@H](CC(=O)O)NC(=O)[C@@H](NC(=O)[C@H](Cc1ccccc1)NC(=O)[C@@H](NC(=O)[C@H](C)NC(=O)[C@H](CC(=O)O)NC(=O)[C@H](CO)NC(=O)[C@@H](N)Cc1c[nH]cn1)C(C)C)[C@@H](C)O)[C@@H](C)O)C(C)C)C(=O)N[C@@H](CC(C)C)C(=O)N[C@@H](CC(N)=O)C(N)=O	Pituitary adenylate cyclase-activating polypeptide type I receptor (ADCYAP1R1, Homo sapiens, UniProt P41586)	calcium mobilization, agonist, Fluo-8 AM	COS-7	AUC over 2 min	–	Emax	61 ± 6%
Cc1ccc2c(C(C[N+](=O)[O-])c3cccs3)c(-c3ccccc3)[nH]c2c1 (stereo not shown)	Cannabinoid receptor 1 (CNR1, Homo sapiens, UniProt P21554, S199A)	β-arrestin recruitment, agonist, luciferase	–	–	–	Emax	46.5%
COC1CN([C@H]2CC[C@H]([C@@H](C)n3c(C)c(C(=O)NCc4c(C)cc(C)[nH]c4=O)c4ccccc43)CC2)C1	EZH2	binding, TR-FRET	–	with: H3K27me3 activating peptide	–	residence time	174 min
CC(C)(C)C(=O)OCOP(=O)(OCOC(=O)C(C)(C)C)C1CCCN(O)C1=O (stereo not shown)	SK-MEL-2	–	–	–	–	CC50	45.8 µM
CN(C)[C@H]1C[C@@]23CC[C@@]4(O2)C(=CC[C@]2(C)[C@@H](c5ccc6ccncc6c5)CC[C@H]24)C=C3[C@@H](O)[C@@H]1O	Wee1-like protein kinase (WEE1, Homo sapiens, UniProt P30291)	ATP probe labelling, inhibitor, KiNativ profiling	–	1 µM	–	inhibition	-11.2%
Nc1ccc(/C=C/C(=O)N2CCc3c(oc4c(-c5ccc(F)cc5)cc(-c5ccc(C(=O)N6CCC(F)(F)CC6)cn5)cc34)C2)cn1	Tyrosine-protein kinase receptor UFO (AXL, Homo sapiens, UniProt P30530)	binding, competition with immobilised ligand	–	1 µM	–	remaining binding	100%
Cc1sc2c(c1C)C(c1ccc(Cl)cc1)=N[C@@H](CC(=O)OC(C)(C)C)c1nnc(C)n1-2	Bromodomain-containing protein 3, BD2 (BRD3, Homo sapiens, UniProt Q15059)	isothermal titration calorimetry	–	15 °C, reverse titration	–	TΔS	4.41 kcal/mol
COc1ccccc1C(C[N+](=O)[O-])c1c(-c2ccccc2)[nH]c2ccccc12 (stereo not shown)	Cannabinoid receptor 1 (CNR1, Homo sapiens, UniProt P21554, V249A)	Gαi1-γ2 dissociation, BRET	–	–	–	Emax	92.3 ± 7.47%
COc1cc(C2C(NC(=O)c3ccc(NC(=O)OC(C)(C)C)cc3)(C(=O)O)C(c3ccc(OC(=O)c4cccs4)c(OC)c3)C2(NC(=O)c2ccc(NC(=O)OC(C)(C)C)cc2)C(=O)O)ccc1OC(=O)c1cccs1 (stereo not shown)	Glucagon-like peptide 1 receptor (GLP1R, Homo sapiens, UniProt P43220)	cAMP production, agonist	–	–	–	Emax	98.9 ± 2.63%
CSc1cc(C)[nH]c(=O)c1CNC(=O)c1c(C)n([C@H](C)C2CCN(CC(F)(F)F)CC2)c2ccccc12	EZH2	binding, TR-FRET	–	–	–	residence time	660 min
O=C1NC(=O)c2c1c1cc(F)c[n+]3c1c1c2c2cc(O)ccc2[n]1[Ru-4]312([N]=C=S)[S+]3CC[S+]1CC[S+]2CC3 (stereo not shown)	Mast/stem cell growth factor receptor Kit (KIT, Homo sapiens, UniProt P10721, V654A)	enzyme activity	–	100 nM, human enzyme, with: 10 µM ATP	reference: untreated	remaining activity	20%
O=C1NC2(CC2)COc2ncc(F)cc2[C@H]2COCCN2c2ccn3ncc1c3n2	–	–	Sprague-Dawley rat, female, adrenals	oral, 2.5 mg/kg/day, 4 weeks dosing, end of recovery	–	organ-to-brain weight ratio	3.29 ± 0.3%
CC(=O)N[C@@H](CCC(=O)O)C(=O)N[C@@H](CCC(N)=O)C(=O)N[C@H](C(=O)N[C@@H](CCC(=O)O)C(=O)N[C@@H](CC(C)C)C(=O)N[C@@H](CCC(=O)O)C(=O)N[C@@H](Cc1ccccc1)C(=O)N[C@@H](CC(=O)O)C(=O)O)C(C)C	Beta sliding clamp (Escherichia coli, UniProt P0A988)	isothermal titration calorimetry	–	concentration not given, pH 7.4, 25 °C	–	binding enthalpy	-9.8 ± 1.2 kcal/mol
COC1CN([C@H]2CC[C@H]([C@@H](C)n3c(C)c(C(=O)NCc4c(SC)cc(C)[nH]c4=O)c4ccccc43)CC2)C1	EZH2	binding, TR-FRET	–	with: H3K27me3 peptide	–	kon	310000 M⁻¹ s⁻¹
CCC[C@H](C(=O)c1ccccc1)N1CCCC1	Sodium-dependent dopamine transporter (SLC6A3, Homo sapiens, UniProt Q01959)	DAT-mediated current recovery, electrophysiology	human DAT-expressing cells	100 µM, with: 30 µM dopamine	–	koff	0.051 s⁻¹
CC(C)CC(C(=O)N1CC2(CC1C#N)C(=O)Nc1ccccc12)N(C)C(=O)c1cc2c(F)cc(F)c(F)c2[nH]1 (stereo not shown)	Papain (Carica papaya, UniProt P00784)	enzyme activity, inhibitor	–	–	–	Hill slope	-0.42
COc1cc(C)[nH]c(=O)c1CNC(=O)c1c(C)n([C@H](C)[C@H]2CC[C@H](N3CC(OC)C3)CC2)c2ccccc12	EZH2	binding, jump dilution	–	with: H3K27me3 activating peptide	–	residence time	150 min
N[C@H](C(=O)N1CCCC1)C1CCN(c2nccc3c(-c4ncc(Cl)cc4Cl)cccc23)CC1	Androgen receptor (AR, Homo sapiens, UniProt P10275)	ligand displacement, radioligand	–	10 µM	–	inhibition	5%
CC(C)[C@H]1NC(=O)C[C@H]2/C=C/CCSSC[C@@H](NC1=O)C(=O)N[C@H](Cc1cccc3ccccc13)C(=O)NCC(=O)O2	Tyrosine-protein kinase Lyn, isoform A (LYN, Homo sapiens, UniProt P07948)	–	–	10 µM	–	inhibition	-1%
CCCCCn1cc(C(=O)c2cccc3ccccc23)c2ccccc21	Cannabinoid receptor 2 (CNR2, Homo sapiens, UniProt P34972)	agonist, BRET	–	–	reference: Gαi1 over β-arrestin 2, reference agonist	bias factor (ΔΔlog(Emax/EC50))	0.12
Nc1ccn([C@@H]2O[C@H](COP(=O)(O)OP(=O)(O)OP(=O)(O)O)[C@@H](O)[C@H]2O)c(=O)n1	RNA-directed RNA polymerase PB1, with PA and PB2 (Influenza B virus, UniProt Q5V8Y6)	single-nucleotide incorporation, substrate	–	–	–	Vmax	0.91 product fraction

Repeated from above:
Compound	tested on	test	test system	setting	how to read	endpoint	value
COC1CN([C@H]2CC[C@H]([C@@H](C)n3c(C)c(C(=O)NCc4c(C)cc(C)[nH]c4=O)c4ccccc43)CC2)C1	EZH2	binding, TR-FRET	–	with: H3K27me3 activating peptide	–	residence time	174 min
CC(C)(C)C(=O)OCOP(=O)(OCOC(=O)C(C)(C)C)C1CCCN(O)C1=O (stereo not shown)	SK-MEL-2	–	–	–	–	CC50	45.8 µM
CN(C)[C@H]1C[C@@]23CC[C@@]4(O2)C(=CC[C@]2(C)[C@@H](c5ccc6ccncc6c5)CC[C@H]24)C=C3[C@@H](O)[C@@H]1O	Wee1-like protein kinase (WEE1, Homo sapiens, UniProt P30291)	ATP probe labelling, inhibitor, KiNativ profiling	–	1 µM	–	inhibition	-11.2%
